# Results of several laboratories.
# Several values in a cell are separate wells, animals, samples, runs or records.
Compound,cell line,test,setting,scale,quantity,value
O=C(Nc1nnc2c1c(-c1ccc(Cl)cc1)nc1sc(=Cc3ccco3)c(=O)n12)c1ccccc1 (mixture of isomers),A549/ATCC,NCI60 SRB,10 µM,,growth percent,57.2%
COc1ccc(-c2cc3c(N4CCC[C@H](C(=O)NCc5ccc(OC(F)(F)F)cc5)C4)ncnc3[nH]2)cn1,NCI-H2228,"cell growth or viability, MTT","0.04 µg/mL, 72 h",,inhibition,21%
O=C(C[Se]C(=O)c1cc2ccccc2o1)Nc1cccc(C(F)(F)F)c1,NCI60 renal subpanel,cell growth,"10 µM, 48 h, one-dose",,mean growth percent,-84.1%
CN1CCN(C(=O)c2ccc(-c3cc4c(N5CCC[C@H](C(=O)NCc6ccc(OC(F)(F)F)cc6)C5)ncnc4[nH]3)cc2)CC1,NCI-H2228,"cell growth or viability, MTT","0.2 µg/mL, 72 h",,inhibition,62.8%
[BH3-][P+]1(c2ccccc2)CCCCC1,SW480,trypan blue,"IC50, 72 h",baseline: untreated,reduction of cell number,45 to 53%
Cn1ncc2cc(-c3cncc(Cl)c3N3CCC4(CCNC4=O)CC3)ccc21,LS174T,"gene expression, microarray, refers to: CNN1 mRNA","concentration not given, 24 h",baseline: untreated cells,log2 fold change,-2.22
O=C(NCc1ccc(OC(F)(F)F)cc1)[C@H]1CCCN(c2ncnc3[nH]c(-c4ccccc4)cc23)C1,NCI-H2228,"cell growth or viability, MTT","0.2 µg/mL, 72 h",,inhibition,43.8%
CCN(CC)CC(=O)Nc1cccc(-n2cc(-c3ccc4ccc(-c5cn(-c6cccc(NC(=O)CN(CC)CC)c6)nn5)cc4c3)nn2)c1,RCC4,"PCR array, refers to: CTGF","5 x IC50, 6 h, normoxia",baseline: untreated,fold regulation,-3.03
O=C(NCc1ccc(OC(F)(F)F)cc1)[C@H]1CCCN(c2ncnc3[nH]c(-c4cc(F)c(F)c(F)c4)cc23)C1,NCI-H2228,"cell growth or viability, MTT","0.2 µg/mL, 72 h",,inhibition,11.9%
COCCCCCNc1nc(NCCCCCCN(C)C)c2cc(NC(=O)/C=C/CN(C)C)ccc2n1,MCF7,CellTiter-Glo,"0.09766 µM, 48 h, unit not given",baseline: DMSO-treated cells,viability,1.06 and 1.03
CN1CCCNC(=O)c2cccc(c2)C(=O)NCCCN(C)CCCNc2cccc3c2C(=O)c2cccc(c2C3=O)NCCC1,SAS,"RNA-Seq, refers to: UPF2 mRNA","1 µM, 6 h",baseline: untreated cells,log2 fold change,-1.13
COc1ccccc1-c1ccncc1C(=O)Nc1nnc(OCc2ccc(Cl)cc2)s1,MDA-MB-436 BRCA1-mutant,colony formation,1.5 µM,baseline: vehicle (DMSO),colony survival,52.4%
CNS(=O)(=O)Nc1nccc(Cc2c(C)c3ccc(Oc4ncccc4F)cc3oc2=O)c1F,RT-112,cell viability,7 days,,IC50,329 nM
COc1ccc(NC(=O)c2ccc3[nH]c(-c4ccc(N(C)C)cc4)nc3c2)cn1,HCEC-hTERT,IncuCyte,"concentration not given, 14 h",,dead cell to confluence ratio,2.91 and 6.92 and 87.2
O=C(NN1C(=O)c2ccccc2NC1c1ccc([N+](=O)[O-])o1)c1ccc([N+](=O)[O-])cc1 (stereo not shown),LDR,"silenced CMV-GFP reporter derepression, qHTS",,,efficacy,113%
CC(C)c1ccc(N(C)c2ccc3c(c2)OCC[C@H]3CNc2cnccc2C(=O)O)cc1,NCI-H2081,"cell viability, CellTiter-Glo",7 days,,IC50,2.57 nM
Cn1ncc(-c2ccc3c(=O)[nH]nc(CN)c3c2)c1-c1c(F)c(Cl)cc(OC2CC2)c1C#N,NCI-H2228,"cell viability, inhibitor, CellTiter-Glo","120 h, baseline-subtracted",,IC50,50 nM
Cc1ncsc1-c1ccc(C(C)NC(=O)C2CC(O)CN2C(=O)C(NC(=O)CCCCCCCCCCN2CCCC(Nc3ncc(Cl)c(Nc4ccccc4S(=O)(=O)C(C)C)n3)C2)C(C)(C)C)cc1 (stereo not shown),22Rv1,"RNA-seq, refers to: RGL4 mRNA",concentration not given,baseline: DMSO,log2 fold change,-1.48
CN(C)c1ccc(-n2cc(COC(=O)[C@]3(C)C=C(C(=O)OC(C)(C)C)C(=O)CC3)nn2)cc1,HeLa,quantitative western blot,"concentration not given, 30 (unit not given), added: EGF",,pRSK/tubulin ratio,0.153

# Excerpt of the above:
Compound,cell line,test,setting,scale,quantity,value
COc1ccccc1-c1ccncc1C(=O)Nc1nnc(OCc2ccc(Cl)cc2)s1,MDA-MB-436 BRCA1-mutant,colony formation,1.5 µM,baseline: vehicle (DMSO),colony survival,52.4%
CNS(=O)(=O)Nc1nccc(Cc2c(C)c3ccc(Oc4ncccc4F)cc3oc2=O)c1F,RT-112,cell viability,7 days,,IC50,329 nM
